Measurements from different studies.
Parts stem from different laboratories: compare values within a part only.

Series 1
Target: RING finger protein unkempt homolog, zinc fingers 1-6, GST-SBP tag (UNK, Homo sapiens, UniProt Q9C0B0, residues 30-357)
UniProt Q9C0B0, sequence (30-357, looked up): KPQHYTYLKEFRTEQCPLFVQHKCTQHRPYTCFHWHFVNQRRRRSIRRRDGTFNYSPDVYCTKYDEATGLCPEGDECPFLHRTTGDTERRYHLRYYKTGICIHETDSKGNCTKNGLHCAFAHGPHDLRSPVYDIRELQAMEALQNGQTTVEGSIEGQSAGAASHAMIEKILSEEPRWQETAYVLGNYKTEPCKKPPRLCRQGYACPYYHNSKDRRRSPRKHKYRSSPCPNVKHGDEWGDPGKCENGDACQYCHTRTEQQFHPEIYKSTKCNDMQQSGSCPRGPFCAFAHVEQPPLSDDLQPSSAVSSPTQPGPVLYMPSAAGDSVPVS
Method: RNA Bind-n-Seq
Molecule type: RNA
Sample: in vitro
Concentration: not given
Notes: RNA with constant flanks, human and mouse sites, ends assumed
Baseline: input RNA pool
Reading: higher = stronger binding
Constant ends, left off below: GGGAGUUCUACAGUCCGACGAUC … CAACAGAGGAUUGAGCAUCA
| Strand | bound/input enrichment [ratio] |
| --- | --- |
| GGCUGGUUAAAUGGCUAUAAUGAAACCACAGGGGAAAGGGGGGACUUUCCGGGAACUUACGUAGAAUAUAUUGGAAGGAAAAAAAUCUCGCCUCCCACACCAAAGCCCCGGCCACCUCGG | 1.15 |
| CACUAAGUCUUUAAAGGUCUUCUGGGGAAAGGACCUAGGGGACUGGAAAUCCAAGCCCGGAGCAAGUGGCUGACUUCUCCUGGAUCUUUUCCCACCUCGGUAUUUUCCCUUGGAUAUUAA | 0.119 |
| ACAAUCUCAGAAGAGACUCUGGCCAAUAAUACUUGGUCUUUAAUGUUAAAAGAAGUUCUUUCUUCAAUCUUGAAGGUUCCUGAAGGAUUUUUUUCUGGACUCAUACUCCUUUCAGAGCUG | 0.238 |
| GUAAUAGAAAUUAUGUAGCUCCUUAUGUUGGCAAAGGAGCUCUAUAUAGUUUCACUUUGUAUAAAAGUUAGGACCAGCUGUUGUUACAUGUAAUAUUUUAGUUCAGAACUUGACCUGAAG | 1.06 |
| GGAAACGGACUUUUUGGUGAAGAAACCCAAACGGUUGAUGCCAGGCAGGGUGAUUUGGCCGUCAAAGGUUUUGACGAAACCUGCCCUGUUCUCUCUGGGGAAUCCGAAUGAGGGAGAUCA | 0.134 |
| ACUCAGAGAUCCACCUCCCAAAGUGCUGGGAGUAAAGGUGUGGCCACCACACCUAACUUGAUGGAUAUAUAUUUUUUUUAAUAUGAAUCUUCCUGUUCGUCCAGGGAAGAAAGAUUUGUU | 1.37 |
| GAAGCAGCAGCACUGCUAGAAAGUGGCAGUUCAGUGGGAGACGAGACCGAUCUUGCUAAUUUAGGUGAUGUGGCUUCUGAUGGGAAAAAGGAACCAUCAGAUAAAGCUGUGAAAAAAGAU | 0.317 |
| UGUGAGCAGAAAAGAGGCAAAGAUAAUAAAGCUAUUAUUGCAUCGAAUAUCAUGUACAUAGUAGGUCAAUACCCAAGAUUUUUGAGAGCACACUGGAAAUUUUUGAAGACAGUAGUAAAC | 0.256 |
| AAGAAACAAAUCAUAUUGUGUAUGGAAGAAUUAGAACACUCUCCAGAUACAAGCUUUGAAAGAGAUGUGGUGUGUGAAGAUGAAAGUGCUUUUUGUUUAUCACUGGAGAACAUUGCAACA | 0.166 |
| AGUGUUAAAUUUAACCCAAUUGAGACAUUUCUCUUGGGAAGUUGUGCAUCUGACAGGAAUAUAGUACUGUACGAUAUGAGGCAAGCUACUCCUUUGAAAAAGGUUAUCUUAGAUAUGAGA | 0.396 |
| GCUGACACAAUAGAUACAAUUGAAAAGGAAAUAAGAAAAAUCUUCAGUAUUCCAGAUGAAAAGGAGACCAGAUUGUGGAACAAAUACAUGAGUAACACAUUUGAACCACUGAAUAAACCA | 0.883 |

Series 2
Target: Sal-like protein 4, full length isoform A (SALL4, Homo sapiens, UniProt Q9UJQ4, residues 1-1053)
UniProt Q9UJQ4, sequence (whole entry, looked up): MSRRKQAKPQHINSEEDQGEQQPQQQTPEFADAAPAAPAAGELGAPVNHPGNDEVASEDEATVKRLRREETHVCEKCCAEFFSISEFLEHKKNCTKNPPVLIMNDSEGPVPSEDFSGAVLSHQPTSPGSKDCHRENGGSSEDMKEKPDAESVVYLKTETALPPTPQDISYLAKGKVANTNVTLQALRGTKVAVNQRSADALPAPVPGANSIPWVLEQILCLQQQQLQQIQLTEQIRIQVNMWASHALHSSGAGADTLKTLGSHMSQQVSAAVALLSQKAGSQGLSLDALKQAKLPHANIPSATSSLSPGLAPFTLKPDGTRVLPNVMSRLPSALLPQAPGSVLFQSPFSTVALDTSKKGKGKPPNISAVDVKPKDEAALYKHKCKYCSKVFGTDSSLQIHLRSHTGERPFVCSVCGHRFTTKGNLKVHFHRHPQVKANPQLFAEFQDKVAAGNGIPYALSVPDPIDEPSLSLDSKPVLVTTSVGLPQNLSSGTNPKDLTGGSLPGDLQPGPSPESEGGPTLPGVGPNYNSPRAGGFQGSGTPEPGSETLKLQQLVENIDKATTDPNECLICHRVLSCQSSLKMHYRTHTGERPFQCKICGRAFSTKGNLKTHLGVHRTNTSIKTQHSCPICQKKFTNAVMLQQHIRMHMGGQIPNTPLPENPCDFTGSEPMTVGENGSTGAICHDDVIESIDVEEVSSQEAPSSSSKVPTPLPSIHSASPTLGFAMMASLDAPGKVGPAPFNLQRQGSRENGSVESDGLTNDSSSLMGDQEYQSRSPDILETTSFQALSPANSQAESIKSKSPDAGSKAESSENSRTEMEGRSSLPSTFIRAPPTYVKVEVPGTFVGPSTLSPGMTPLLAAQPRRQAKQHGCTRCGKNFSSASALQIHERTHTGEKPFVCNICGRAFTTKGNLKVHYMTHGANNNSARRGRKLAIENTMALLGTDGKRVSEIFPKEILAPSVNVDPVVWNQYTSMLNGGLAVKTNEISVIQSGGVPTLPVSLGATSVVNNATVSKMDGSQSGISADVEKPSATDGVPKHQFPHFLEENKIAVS
Method: universal PBM
Molecule type: double-stranded DNA, one strand shown
Sample: in vitro
Concentration: 600 nM
Notes: 8-mer, flanks averaged, mean of replicates
Reading: higher = stronger binding
| Strand | E-score |
| --- | --- |
| GCTACACA | 0.077 |
| ACATGAGG | 0.0345 |
| CAGATGTC | -0.028 |
| ACTTATTA | 0.397 |
| GTATAGTA | 0.221 |
| AATATGCT | 0.306 |
| ACGTAATG | 0.243 |
| CGCACAAG | -0.101 |
| AACTCTAT | 0.195 |
| TCTGTGCA | 0.0862 |
| AAGAAGGA | 0.0649 |
| ACTAAGTA | 0.115 |
| AGCTTGGA | -0.275 |
| CGATATAG | 0.23 |
| ACCCGTCT | -0.261 |
| GAAGTCGC | -0.229 |
| ATGTAGGA | 0.0571 |
| AGCAGTCA | -0.161 |
| ACTCCGGG | -0.259 |
| AGCATGAA | 0.0972 |
| ATGGTTAG | 0.0171 |

Series 3
Target: Interferon regulatory factor 5, full length, phosphomimetic (IRF5, Homo sapiens, UniProt Q13568-2, residues 1-514, K96S/S451D/S453D/S456D/S462D)
Method: protein-binding microarray
Molecule type: double-stranded DNA, one strand shown
Sample: in vitro
Concentration: 250 nM
Notes: 60-bp whole probe
Together with: salmon DNA 0.4 mg/ml
Baseline: random background probes
Reading: higher = stronger binding
Constant ends, left off below: GCCTAGCAC … GTCTTGATTCGCTTGACGCTGCTG
| Strand | log fluorescence |
| --- | --- |
| TTATGACTGGACTATCGGTTAGTGCTA | 5.97 z-score |
| TCACATGTGGGTTCCATACTGTGCTAG | -0.0851 z-score |
| GACCATTTCAGTTTCGAGACGTGCTAG | 7.05 z-score |
| CTGTCATCATCGTTCCCAGCGTGCTAG | -0.052 z-score |
| GACGGTTTCCTTATCCTGCCGTGCTAG | 0.732 z-score |
| GATGGTATCGACTTTCGGGACGTGCTA | 7.23 z-score |
| TCCATTATTGCTTCCTCTTTGTGCTAG | 0.853 z-score |
| GACGATTTCAGTTCCGATACGTGCTAG | 2.54 z-score |
| GACGGTATCCTTTTGCTGACGTGCTAG | 0.444 z-score |
| TACGATTTCAGTTCCGAGACGTGCTAG | 1.33 z-score |
| GACGGTATCGTGACTGGGGACGTGCTA | -0.0068 z-score |
| TTAGGTCTCGGTTTCGGTAAGTGCTAG | 7.38 z-score |
| GTCGATTTCAGACTGGAGACGTGCTAG | 0.309 z-score |
| TTAGATATCGGGACTGGCTTAGTGCTA | 1.07 z-score |
| GACGGTCTCGGTCTCTGGACGTGCTAG | 0.088 z-score |
| GACGAACTGGGGTTTAGAGACGTGCTA | -0.475 z-score |
| TGGCCTATTTATATGAGATGGTGCTAG | 0.0242 z-score |
| GACGGACTGGACTTTCGGGGCGTGCTA | 2.73 z-score |
| TTAGGACTGGGGTTTCGGATAGTGCTA | 1.87 z-score |
| CGGGGGTGGGGAGAGCCCCTGTGCTAG | 1.21 z-score |
| TTATGTTTCGGGTTTCGGTTAGTGCTA | 10 z-score |

Series 4
Target: Histone acetyltransferase KAT6A, winged helix 2, GST fusion (KAT6A, Homo sapiens, UniProt Q92794, residues 85-181)
Method: protein binding microarray
Molecule type: double-stranded DNA, one strand shown
Sample: in vitro
Concentration: not given
Notes: 8-mer, flanks averaged, mean of 2 arrays, mostly near background
Baseline: not given
Reading: higher = stronger binding
Target sequence (chain): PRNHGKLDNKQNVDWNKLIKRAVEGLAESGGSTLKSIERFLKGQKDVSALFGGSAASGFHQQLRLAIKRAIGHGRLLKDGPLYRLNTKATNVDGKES
| Strand | E-score |
| --- | --- |
| ATATGCGA | -0.12 |
| CGTTACGC | -0.036 |
| CCGAACCC | 0.0278 |
| TACCCCCA | -0.158 |
| CTAAGGAC | -0.0451 |
| GCCGAACC | -0.00095 |
| ATGAAGCA | -0.0468 |
| CAAGGGAC | -0.05 |
| CGGACGGC | 0.203 |
| GCTTCGCC | 0.154 |
| CTGCGTGC | 0.213 |
| ATTTTCCA | 0.0732 |
| AAGGTAGT | -0.106 |
| CTTAACTC | -0.022 |
| ACAAAAGG | 0.0588 |
| AAGCACCC | 0.0977 |
| AGAACGGG | -0.0741 |
| GCTGACCA | 0.103 |
| ATGAGCAA | 0.138 |
| CGTCAACG | -0.0882 |
| AGCCATCA | -0.0513 |

Series 5
Target: RNA binding protein fox-1 homolog 2, RRM domain, GST-SBP tag (RBFOX2, Homo sapiens, UniProt O43251-10, residues 100-194)
Method: RNA Bind-n-Seq
Molecule type: RNA
Sample: in vitro
Concentration: 365 nM
Notes: natural RNA segment, single round, ends assumed
Baseline: no-protein control
Reading: higher = stronger binding
Constant ends, left off below: GGGAGUUCUACAGUCCGACGAUC … UGGAAUUCUCGGGUGCCAA
Residues (chain): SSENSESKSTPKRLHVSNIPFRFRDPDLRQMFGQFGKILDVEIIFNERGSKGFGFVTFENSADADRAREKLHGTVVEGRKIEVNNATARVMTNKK
| Strand | RBNS enrichment (R) |
| --- | --- |
| UGGCCUAUUUCCAGUUUUAUGUGAGUCAUGUAAAAAAGCCUUGGCUCUCUACCUAUUAAGAAUGUCUCUUUCUCUGUAUUUAUUAAGCUUCAAACUUUAUUGCUUCGAUU | 0.628 |
| UGAAAUGUGUCCACAUUCCUCUUGAGUCUUUUGAUGCAGACAAAGAAGAUAUAGCAGAAUCUACCCUUCCAGGAAGACAUACAGUUGAAAUGCUGGUCAUUUCCUUUGCA | 0.706 |
| UUUGGGUUUAAUGUUAUAGAAAUAAAUGAUGAUAAACUCUAACUAAUAAAGGAAAGAGAAUAUUUGGUUACUCAGAUCCAUUUUUAACCUCUGGUGCUGUAUAAAGGGAA | 0.445 |
| AAGCAUGAUAAUCCUUUUUUUUGCAAGUGUAAACGACAGUCUGGACUCUUAACUUCUUAGUGCCUCAGUUUUCCUUUGGGGUAUACUUCACAAGGUAUCAGAAGUACUUU | 1.18 |
| AGAAGAGUUAACUUGUCAAAGCAGAAUGGUUCUCUUUGACCCACUCUGGUCUAUUGUGUAAAUAUUUAUUUAGACUAUUUUAAUAAUACAUAUUAUUUACCCCACUGUAA | 0.631 |
| CUUGGUGAGGAUGGGUUUCAAACAGCACACUCCUCCCGGUGGAGGAAGAUUAACAACAGUCUCUCCCCCAGAACCUCAUUAUUUAUUUAUUUGGCAUUCCAGAAAGGAUU | 0.64 |
| CUGUGGUAUGUGUGUUCUCACGUGUGUGUGCACAUACACACACACACGCAUAUCAAUUAAUUUAAAAAGCGAAUAAAUGUAAAUUAUAAAAAGAGUCCUACCCCCCUCUU | 0.634 |
| CCUCCUGGCUUUCGUGGCCAUCUUUGUCCAUCUUAGGUGGGGACUUGAUCUUAUUUAAGGUCUCCAAAUAGCCCCCACCACACUUAGAACGUGUGUUUUCUUAGUGUUAG | 0.255 |
| CUUCUAGGGUAAAAACAGCUAUUACUAAUCUCUGCACUGGUCAUUUGAGAAUUUUUUUUGUACAGCAUUCAUGUGUGAUAUUUUCCAGAUUUGUUGGAUCUAUUUGGUUU | 0.798 |
| GUUCAGAGAUGGCAAUGGAUGAUGGGAAGAUAAGCUCAGAAGGGAAAGGAACCCCUUUGAGAGGUCGCGAGGCCCAUCUUUACUAGGACCCUUCCAUCUCUCCUGGGACA | 0.399 |
| CCCAAGGUUCUAUCCUGUUCCGAGCAACUUUUCUAAUUAUAAACAUCACAGAACAUCCUGGAUCAAAGCGUGUGUCUUGCUCUGUCUCUAUCCUUGCUUGCAGCUCUUAG | 0.993 |
| ACCCUUCCGUUGAUUAGCAAUGACUGUGCUUGACCCACCCACCUACCCUACUAAUGAAUUUCUGUAGAGUGGAUGGACGGGUUUGAGGGAAGAAGGGUGGAGGUGGAUUA | 0.38 |

Some of these lines once more (series 5):
| Strand | RBNS enrichment (R) |
| --- | --- |
| CCCAAGGUUCUAUCCUGUUCCGAGCAACUUUUCUAAUUAUAAACAUCACAGAACAUCCUGGAUCAAAGCGUGUGUCUUGCUCUGUCUCUAUCCUUGCUUGCAGCUCUUAG | 0.993 |
| ACCCUUCCGUUGAUUAGCAAUGACUGUGCUUGACCCACCCACCUACCCUACUAAUGAAUUUCUGUAGAGUGGAUGGACGGGUUUGAGGGAAGAAGGGUGGAGGUGGAUUA | 0.38 |
| UUUGGGUUUAAUGUUAUAGAAAUAAAUGAUGAUAAACUCUAACUAAUAAAGGAAAGAGAAUAUUUGGUUACUCAGAUCCAUUUUUAACCUCUGGUGCUGUAUAAAGGGAA | 0.445 |
| CUGUGGUAUGUGUGUUCUCACGUGUGUGUGCACAUACACACACACACGCAUAUCAAUUAAUUUAAAAAGCGAAUAAAUGUAAAUUAUAAAAAGAGUCCUACCCCCCUCUU | 0.634 |
| AGAAGAGUUAACUUGUCAAAGCAGAAUGGUUCUCUUUGACCCACUCUGGUCUAUUGUGUAAAUAUUUAUUUAGACUAUUUUAAUAAUACAUAUUAUUUACCCCACUGUAA | 0.631 |
| UGAAAUGUGUCCACAUUCCUCUUGAGUCUUUUGAUGCAGACAAAGAAGAUAUAGCAGAAUCUACCCUUCCAGGAAGACAUACAGUUGAAAUGCUGGUCAUUUCCUUUGCA | 0.706 |
| GUUCAGAGAUGGCAAUGGAUGAUGGGAAGAUAAGCUCAGAAGGGAAAGGAACCCCUUUGAGAGGUCGCGAGGCCCAUCUUUACUAGGACCCUUCCAUCUCUCCUGGGACA | 0.399 |
